Experimental data gathered from unrelated publications.
Each line is one published result; not all experiments were run side by side.
tmk: Thymidylate kinase (tmk, Mycobacterium tuberculosis, UniProt P9WKE1)
Sequence of UniProt P9WKE1 (whole entry, looked up): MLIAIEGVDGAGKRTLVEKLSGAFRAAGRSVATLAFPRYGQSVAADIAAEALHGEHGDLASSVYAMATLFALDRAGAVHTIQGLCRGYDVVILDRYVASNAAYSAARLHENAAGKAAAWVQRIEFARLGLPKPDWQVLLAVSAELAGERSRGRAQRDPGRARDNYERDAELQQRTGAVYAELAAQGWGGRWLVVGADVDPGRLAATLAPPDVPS
TMPRSS2: Transmembrane protease serine 2 (TMPRSS2, Homo sapiens, UniProt O15393)
Sequence of UniProt O15393 (whole entry, looked up): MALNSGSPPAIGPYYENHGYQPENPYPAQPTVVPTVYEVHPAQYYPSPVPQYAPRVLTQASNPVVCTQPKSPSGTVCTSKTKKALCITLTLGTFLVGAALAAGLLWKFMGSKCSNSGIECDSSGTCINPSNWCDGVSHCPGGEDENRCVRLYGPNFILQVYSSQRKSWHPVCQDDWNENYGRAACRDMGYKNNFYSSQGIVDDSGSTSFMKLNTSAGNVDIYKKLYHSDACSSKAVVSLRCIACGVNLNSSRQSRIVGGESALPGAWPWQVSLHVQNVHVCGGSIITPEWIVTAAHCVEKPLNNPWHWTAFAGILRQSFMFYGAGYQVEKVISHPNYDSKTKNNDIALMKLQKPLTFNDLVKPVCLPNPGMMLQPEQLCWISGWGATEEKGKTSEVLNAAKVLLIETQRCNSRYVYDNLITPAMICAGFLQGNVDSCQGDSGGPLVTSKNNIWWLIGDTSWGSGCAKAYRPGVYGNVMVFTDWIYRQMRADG
PFF0160c: Dihydroorotate dehydrogenase (quinone), mitochondrial (PFF0160c, Plasmodium falciparum, UniProt Q08210)
Sequence of UniProt Q08210 (whole entry, looked up): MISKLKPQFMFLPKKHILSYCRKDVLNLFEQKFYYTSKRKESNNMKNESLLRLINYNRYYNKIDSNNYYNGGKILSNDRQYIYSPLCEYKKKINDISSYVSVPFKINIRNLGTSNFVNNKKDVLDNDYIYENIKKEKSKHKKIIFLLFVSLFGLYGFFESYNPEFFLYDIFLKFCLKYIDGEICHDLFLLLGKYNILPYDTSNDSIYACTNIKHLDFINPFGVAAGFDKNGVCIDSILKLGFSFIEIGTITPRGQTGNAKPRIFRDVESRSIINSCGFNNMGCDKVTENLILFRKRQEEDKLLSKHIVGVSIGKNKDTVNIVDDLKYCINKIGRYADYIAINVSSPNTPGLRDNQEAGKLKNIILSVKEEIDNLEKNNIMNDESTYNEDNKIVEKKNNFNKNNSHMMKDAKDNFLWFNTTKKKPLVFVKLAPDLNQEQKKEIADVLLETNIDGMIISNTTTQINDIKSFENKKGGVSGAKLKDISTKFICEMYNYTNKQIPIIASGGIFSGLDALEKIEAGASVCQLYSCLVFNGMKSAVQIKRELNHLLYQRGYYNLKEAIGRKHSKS
Htr2c: 5-hydroxytryptamine receptor 2C (Htr2c, Mus musculus, UniProt P34968)
Sequence of UniProt P34968 (whole entry, looked up): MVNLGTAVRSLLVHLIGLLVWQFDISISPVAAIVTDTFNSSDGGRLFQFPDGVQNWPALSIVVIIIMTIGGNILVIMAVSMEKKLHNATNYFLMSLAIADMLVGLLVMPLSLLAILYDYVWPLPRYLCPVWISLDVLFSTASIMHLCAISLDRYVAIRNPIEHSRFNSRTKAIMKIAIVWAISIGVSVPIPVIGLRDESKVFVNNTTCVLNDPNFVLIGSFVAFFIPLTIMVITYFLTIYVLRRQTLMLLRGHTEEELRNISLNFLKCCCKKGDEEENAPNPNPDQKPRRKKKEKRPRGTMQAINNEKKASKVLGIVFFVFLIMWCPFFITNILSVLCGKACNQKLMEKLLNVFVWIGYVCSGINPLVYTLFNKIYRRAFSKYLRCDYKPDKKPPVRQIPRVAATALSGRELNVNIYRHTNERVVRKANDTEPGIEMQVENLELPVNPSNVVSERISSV
Sequence of UniProt P10721 (whole entry, looked up): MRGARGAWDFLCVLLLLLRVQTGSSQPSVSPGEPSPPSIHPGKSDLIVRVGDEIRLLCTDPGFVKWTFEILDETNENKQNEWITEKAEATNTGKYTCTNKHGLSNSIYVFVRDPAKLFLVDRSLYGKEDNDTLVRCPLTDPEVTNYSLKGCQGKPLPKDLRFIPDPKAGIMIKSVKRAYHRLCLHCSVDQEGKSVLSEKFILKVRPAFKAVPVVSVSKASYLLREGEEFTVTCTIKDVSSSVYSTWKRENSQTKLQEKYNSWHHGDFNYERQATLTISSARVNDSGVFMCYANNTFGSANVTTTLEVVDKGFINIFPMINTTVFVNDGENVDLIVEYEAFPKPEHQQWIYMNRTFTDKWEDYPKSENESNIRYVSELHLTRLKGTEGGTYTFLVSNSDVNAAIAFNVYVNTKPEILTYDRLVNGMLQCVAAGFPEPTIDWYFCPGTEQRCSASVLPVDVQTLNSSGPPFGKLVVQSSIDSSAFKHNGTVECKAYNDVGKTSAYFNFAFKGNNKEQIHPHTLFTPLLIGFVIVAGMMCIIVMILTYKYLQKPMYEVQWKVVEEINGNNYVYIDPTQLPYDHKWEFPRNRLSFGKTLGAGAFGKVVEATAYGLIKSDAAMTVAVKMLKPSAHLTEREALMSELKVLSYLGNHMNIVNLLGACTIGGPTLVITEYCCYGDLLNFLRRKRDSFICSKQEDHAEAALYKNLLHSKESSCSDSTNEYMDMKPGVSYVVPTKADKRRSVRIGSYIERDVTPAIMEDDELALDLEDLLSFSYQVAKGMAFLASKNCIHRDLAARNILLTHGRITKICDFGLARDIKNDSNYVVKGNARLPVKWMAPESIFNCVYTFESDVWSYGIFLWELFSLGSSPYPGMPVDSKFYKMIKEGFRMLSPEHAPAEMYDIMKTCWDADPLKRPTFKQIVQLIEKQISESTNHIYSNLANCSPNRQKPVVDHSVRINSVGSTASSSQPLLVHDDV
Sequence of UniProt P28335 (whole entry, looked up): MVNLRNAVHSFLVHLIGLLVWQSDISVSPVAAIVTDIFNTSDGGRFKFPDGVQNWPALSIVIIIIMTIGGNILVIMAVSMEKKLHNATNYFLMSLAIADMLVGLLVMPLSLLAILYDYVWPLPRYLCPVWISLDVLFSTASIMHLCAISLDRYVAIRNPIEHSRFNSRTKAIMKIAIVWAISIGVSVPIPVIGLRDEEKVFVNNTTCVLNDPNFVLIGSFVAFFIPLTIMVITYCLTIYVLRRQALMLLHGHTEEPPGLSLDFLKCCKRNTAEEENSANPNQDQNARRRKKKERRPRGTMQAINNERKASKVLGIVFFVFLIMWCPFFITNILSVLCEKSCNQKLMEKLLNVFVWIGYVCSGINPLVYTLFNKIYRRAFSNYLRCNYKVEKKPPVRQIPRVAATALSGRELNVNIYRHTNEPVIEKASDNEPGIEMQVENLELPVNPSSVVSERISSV
Sequence of UniProt O14920 (whole entry, looked up): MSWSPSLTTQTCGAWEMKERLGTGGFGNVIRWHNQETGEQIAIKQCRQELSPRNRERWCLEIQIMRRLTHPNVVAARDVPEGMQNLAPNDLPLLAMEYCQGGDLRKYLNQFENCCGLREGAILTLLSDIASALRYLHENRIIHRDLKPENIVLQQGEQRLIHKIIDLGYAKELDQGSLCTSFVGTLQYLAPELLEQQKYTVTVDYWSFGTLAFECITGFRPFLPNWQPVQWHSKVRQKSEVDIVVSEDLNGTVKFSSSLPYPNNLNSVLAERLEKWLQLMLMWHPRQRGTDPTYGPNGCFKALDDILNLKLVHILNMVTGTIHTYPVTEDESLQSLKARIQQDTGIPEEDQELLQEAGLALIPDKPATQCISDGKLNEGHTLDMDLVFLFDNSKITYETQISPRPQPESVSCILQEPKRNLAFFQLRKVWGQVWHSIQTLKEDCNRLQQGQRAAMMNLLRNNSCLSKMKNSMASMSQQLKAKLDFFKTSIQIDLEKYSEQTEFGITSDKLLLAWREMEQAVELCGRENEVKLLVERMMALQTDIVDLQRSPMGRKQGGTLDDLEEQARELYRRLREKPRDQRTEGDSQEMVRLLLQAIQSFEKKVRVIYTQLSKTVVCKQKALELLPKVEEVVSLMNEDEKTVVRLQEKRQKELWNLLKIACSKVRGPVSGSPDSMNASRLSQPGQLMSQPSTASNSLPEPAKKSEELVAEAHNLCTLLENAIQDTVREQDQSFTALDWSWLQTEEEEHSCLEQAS
Sequence of UniProt P35363 (whole entry, looked up): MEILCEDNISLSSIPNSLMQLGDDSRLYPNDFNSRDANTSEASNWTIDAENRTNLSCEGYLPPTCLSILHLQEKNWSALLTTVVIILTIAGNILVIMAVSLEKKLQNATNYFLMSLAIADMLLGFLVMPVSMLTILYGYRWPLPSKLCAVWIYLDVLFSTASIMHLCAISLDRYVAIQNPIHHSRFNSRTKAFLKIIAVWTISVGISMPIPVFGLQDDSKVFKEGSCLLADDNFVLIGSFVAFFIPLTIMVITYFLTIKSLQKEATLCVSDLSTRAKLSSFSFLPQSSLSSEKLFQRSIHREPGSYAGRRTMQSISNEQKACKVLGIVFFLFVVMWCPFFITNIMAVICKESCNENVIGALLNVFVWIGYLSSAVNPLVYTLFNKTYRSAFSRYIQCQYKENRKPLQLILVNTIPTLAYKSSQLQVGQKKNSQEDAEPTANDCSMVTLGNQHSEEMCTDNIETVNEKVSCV

| Structure (SMILES) | target or system | test | test system | conditions | quantity | result |
| --- | --- | --- | --- | --- | --- | --- |
| Cl.N#Cc1ccc(C(=O)N[C@H]2CC[C@@]3(O)[C@H]4Cc5ccc(O)c6c5[C@@]3(CCN4CC3CC3)[C@H]2O6)s1 | HEK293 | GTPγS binding, agonist, radiometric |  |  | Emax | 30.8% |
| C#Cc1n[nH]c2c(-c3cn(C(C)c4ccccn4)c(=O)[nH]c3=O)cc(F)cc12 (centres unmarked) | Inhibitor of nuclear factor kappa-B kinase subunit beta (IKBKB, Homo sapiens, UniProt O14920) | enzyme activity, inhibitor |  | 1 µM | inhibition | 2.2% |
| CC1=C(C(N)=O)C(c2ccc([N+](=O)[O-])o2)NC(=O)N1 (centres unmarked) | tmk | enzyme activity, inhibitor, absorbance |  | 0.01 µg/mL | inhibition | 46.3% |
| Cc1nn(C)cc1-c1nc2c(N3CCN(Cc4ccc(Cl)cc4)CC3)c(Cl)cnc2[nH]1 | Tyrosine-protein kinase ABL1, phosphorylated (ABL1, Homo sapiens, UniProt P00519, Y253F) | binding, competition with immobilised ligand |  | 1 µM | remaining binding | 100% |
| CC1=C(C(N)=O)C(c2ccc([N+](=O)[O-])o2)NC(=S)N1 (centres unmarked) | tmk | enzyme activity, inhibitor, absorbance |  | 0.01 µg/mL | inhibition | 37.3% |
| C[C@@H](O)[C@H](NC(=O)[C@H](CCc1ccccc1)NC(=O)CCc1ccccc1)C(=O)N[C@@H](CCCNC(=N)N)C(=O)c1nc2ccccc2s1 | TMPRSS2 | enzyme activity, inhibitor |  | 1 nM | activity vs control | 81% |
| CS(=O)(=O)c1ccc(C(=O)N[C@H]2CC[C@@]3(O)[C@H]4Cc5ccc(O)c6c5[C@@]3(CCN4CC3CC3)[C@H]2O6)s1.Cl | HEK293 | GTPγS binding, agonist, radiometric |  |  | Emax | 39.3% |
| COc1ncccc1-c1cnn2ccc(N3CCN(C(=O)OC(C)C)CC3)nc12 | Homeodomain-interacting protein kinase 3 (HIPK3, Homo sapiens, UniProt Q9H422) | binding, competition with immobilised ligand |  | 1 µM | remaining binding | 47% |
| Cl.O=C(N[C@H]1CC[C@@]2(O)[C@H]3Cc4ccc(O)c5c4[C@@]2(CCN3CC2CC2)[C@H]1O5)c1ccc(Br)s1 | HEK293 | GTPγS binding, agonist, radiometric |  |  | Emax | 25.7% |
| COC(=O)c1cc(-c2cccc(NC(=O)Nc3cccc(Br)c3)c2)on1 | Pseudomonas aeruginosa | microbial growth, broth dilution | ATCC27853 |  | MIC | > 64 µg/mL |
| COc1ccccc1N1CCN(Cc2c(NC(C)=O)sc(C)c2C)CC1 | PFF0160c | enzyme activity, inhibitor, absorbance |  |  | IC50 | 351 nM |
| COc1cc(CCNC(C)c2ccccc2)c(OC)cc1C#N (centres unmarked) | Htr2c | G protein activation, agonist, BRET |  |  | Emax | 87% |
| CC(=O)N[C@@H](CCCNC(=N)N)C(=O)N[C@@H](CCC(N)=O)C(=O)N[C@@H](C)C(=O)N[C@H](CCCNC(=N)N)C(=O)c1nc2ccccc2s1 | TMPRSS2 | enzyme activity, inhibitor |  | 1 nM | activity vs control | 23% |
| COc1cc(CCNC(C)c2ccccc2O)c(OC)cc1C#N (centres unmarked) | 5-hydroxytryptamine receptor 2C (HTR2C, Homo sapiens, UniProt P28335) | calcium signal, agonist |  |  | Emax | 94% |
| Nc1ncc(-c2nc(N3CCOCC3)nc(N3CCOCC3)n2)c(C(F)F)n1 | Mast/stem cell growth factor receptor Kit, autoinhibited (KIT, Homo sapiens, UniProt P10721) | binding, competition with immobilised ligand |  | 10 µM | remaining binding | 4.8% |
| CCC(NCCc1cc(OC)c(C#N)cc1OC)c1ccccc1O (centres unmarked) | 5-hydroxytryptamine receptor 2A (Htr2a, Mus musculus, UniProt P35363) | G protein activation, agonist, BRET |  |  | Emax | 81% |
| [2H]c1c([2H])c([C@]2([2H])CCCN2C(=O)C(C)(C)Oc2ccc3cn[nH]c3c2)c([2H])c([2H])c1C([2H])([2H])[2H] | Atypical kinase COQ8A, mitochondrial (COQ8A, Homo sapiens, UniProt Q8NI60) | binding, competition with immobilised ligand |  | 1 µM | remaining binding | 82% |
| CC(Oc1cccc(Cl)c1)C(=O)N1CCc2ccccc21 (centres unmarked) | PFF0160c | enzyme activity, inhibitor, absorbance |  |  | IC50 | 442 nM |
| CC[C@H](C)[C@H](N)C(=O)N[C@@H](CCCNC(=N)N)C(=O)N[C@@H](C)C(=O)N[C@H](CCCNC(=N)N)C(=O)c1nc2ccccc2s1 | TMPRSS2 | enzyme activity, inhibitor |  | 1 nM | activity vs control | 101% |
| COc1cc(CCNCc2ccccc2O)c(OC)cc1C#N | Htr2c | G protein activation, agonist, BRET |  |  | Emax | 105% |
